Measurements gathered from unrelated publications.
“And” joins repeats or separate records; there may be more than shown. ± gives the spread as reported.
UniProt Q53GS9, sequence (whole entry, looked up): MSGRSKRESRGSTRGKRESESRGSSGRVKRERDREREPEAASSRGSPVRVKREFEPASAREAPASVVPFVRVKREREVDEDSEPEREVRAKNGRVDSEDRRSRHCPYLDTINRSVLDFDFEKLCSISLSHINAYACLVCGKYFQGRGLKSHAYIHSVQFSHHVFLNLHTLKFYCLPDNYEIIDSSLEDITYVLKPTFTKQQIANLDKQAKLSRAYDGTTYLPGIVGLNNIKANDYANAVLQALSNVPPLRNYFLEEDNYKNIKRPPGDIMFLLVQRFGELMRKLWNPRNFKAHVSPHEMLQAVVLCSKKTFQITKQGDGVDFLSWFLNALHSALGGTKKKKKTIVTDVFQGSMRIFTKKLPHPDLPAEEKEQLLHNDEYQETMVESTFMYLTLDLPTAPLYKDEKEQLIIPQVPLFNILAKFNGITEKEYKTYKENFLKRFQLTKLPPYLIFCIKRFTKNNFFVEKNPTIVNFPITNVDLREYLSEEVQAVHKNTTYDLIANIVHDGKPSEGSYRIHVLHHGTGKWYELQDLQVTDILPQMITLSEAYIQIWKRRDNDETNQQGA

CC1(C)OC[C@H](c2ccc3ccccc3c2)N[C@@H]1c1ccccc1
logD (shake-flask, 1-octanol/buffer; pH 7.4): > 4.7

O=C(O)CSc1nnc(Br)n1-c1ccc(C2CC2)c2ccccc12
body weight (KM mouse, chronic hyperuricaemia model; dose not given, day 0): 25 g and 23.4 g and 26.4 g and 26.2 g and 24.2 g and 23.2 g

COc1ccc2c(=O)n(C)c(-c3ccccc3)nc2c1
tissue/plasma ratio (Sprague-Dawley rat, male, abdominal fat; oral, 30 mg/kg, 0.25 h; baseline: abdominal fat over plasma): 7.37

CC(C)(C)OCC(=O)Nc1nnc(S(N)(=O)=O)s1
Ki (Alpha-carbonic anhydrase (Enterococcus faecium, UniProt Q3XYE8); CO2 hydration, inhibitor, stopped-flow kinetics): 0.0752 µM

O=C(O)CN1CCCN2CCN(CC(=O)O)CCCN(CC1)Cc1cccc(n1)C2
intact complex (64Cu complex; 2 h, 70 °C, together with: DOTA excess): 97%

CNC(=O)c1ccc(-c2cnc3ncc(Cc4ccc5ncccc5c4)n3n2)cc1F
AUC(0-inf) (human, plasma; oral, 200 mg, geometric mean): 5260 ng·h/mL

C=CCn1c(=O)c2cnc(Nc3ccc(N4CCN(C)CC4)cc3)nc2n1-c1ccc2c(n1)[C@@](O)(CC)CC2
AUC(0-24) (female NOD/SCID mouse OVCAR-3 xenograft, plasma; oral, 90 mg/kg once daily, :2): 43700 ng·h/mL

C[Si]1(C)O[Si](C)(C)O[Si](C)(C)O[Si](C)(C)O[Si](C)(C)O1
enthalpy of phase change (1-octanol/air; concentration not given): -11.3 kcal/mol

COc1ccc([C@H]2COC[C@H](c3ccc(-c4ccccc4)cc3)N2)cc1
logD (shake-flask, 1-octanol/buffer; pH 7.4): > 4.7

Cc1ccc([C@@H]2O[C@H](CO)[C@@H](O)[C@H](O)[C@H]2O)cc1Cc1ccc(-c2ccc(F)cc2)s1
urinary magnesium excretion change (Japanese type 2 diabetes patients; 100 mg, day 2, 24 h urine collection; baseline: baseline): 19.9 mg

CN(CCC#N)C1CCN(C(=O)Cn2cc(NC(=O)c3cnn4cccnc34)c(-c3cc(Cl)ccc3OC(F)F)n2)CC1
LDL cholesterol change (human, single ascending dose; 5 mg, day 4; baseline: baseline): -3.2 mg/dL

NS(=O)(=O)c1ccc(NN=C2C(=O)Nc3ccc(C(=O)O)cc32)cc1
logD (octanol/buffer; 67 µM, pH 7.4): -0.57

COCCOc1cnc2ccn([C@H](C)c3nnc4c(F)cc(-c5cnn(C)c5)cn34)c(=O)c2c1
Ctrough (patients, plasma; oral, 200 mg once daily, day 28 24 h postdose): 370 ng/mL

Cc1cc(C)c(CNC(=O)c2cc(Cl)c3c(c2C)O[C@@](C)([C@H]2CC[C@H](N(C)C)CC2)O3)c(=O)[nH]1
patients with TEAE (item: Dizziness; human patients; oral, 200 mg once daily, 1 day onset day 14): 4.2%

COc1ncc(-c2nc3c(n2C(C)C)[C@H](c2ccc(Cl)cc2)N(c2cc(Cl)cn(C)c2=O)C3=O)c(OC)n1
median half-life (human patients, plasma; oral, 4 mg, cycle 1 day 1, low-dose): 14.3 h

C=CC(=O)N(C)CCOc1c(N)ncnc1-c1cc(F)cc(NC(=O)c2ccc(C3CC3)cc2F)c1C
AUC (human, whole blood; oral, 200 mg single dose): 624 ng·h/mL

c1cc(-c2ccc3ncnc(Nc4ncco4)c3c2)cc(N2CC3(COC3)C2)c1
CLint (human liver microsomes): 36 µL/min/mg

Fc1ccc([C@H]2COC[C@H](c3ccc(-c4ccccc4)cc3)N2)cc1
logD (shake-flask, 1-octanol/buffer; pH 7.4): > 4.7

C=CC(=O)Nc1cc(Nc2nccc(-c3cn(C)c4ccccc34)n2)c(OC)cc1N(C)CCN(C)C
recovery (storage stability; human dried blood spots; 5 h, -80 °C, LLOQ level): 83.9%

COc1ccc2[nH]cc(CCNC(=O)Nc3ccc(Cl)c(Cl)c3)c2c1
logD (octanol/buffer; pH 7.4): 5.03

COc1ccc2c(c1)CN(C(=O)CCN1CCC(Cc3ccccc3)CC1)CC[S@@+]2[O-]
QT interval (telemetry; conscious male beagle dogs; intravenous, 2 mg/kg, 1 h): 218 ± 13 ms

Cc1nc2ccc(OCc3ccc(C(F)(F)F)cc3)cc2[nH]1
tissue concentration (Balb/c mouse, male, lungs; oral, 10 mg/kg, 4 h): 1740 ± 276 ng/g

c1cncc(-c2cccc(Nc3nccc(NC4CCCCC4)n3)c2)c1
efflux ratio (MDCKII-WT cells; 10 µM, pH 7.4; baseline: Papp B-A over A-B): 1.08

CC(C)C[C@H](NC(=O)[C@H]1O[C@@H]1C(=O)O)C(=O)NCCCCN=C(N)N
cysteine adduct formation (PBS; 100 µM, 23 h, pH 7.45, 37 °C, together with: cysteine 10 mM): 68%

COc1ccccc1OCC(O)CN1CCN(CC(=O)Nc2c(C)cccc2C)CC1 (centres unmarked)
trough plasma concentration (human, plasma; oral, 12 mg/kg/day every 6 h): 146 ng/mL

Nc1nc2c(ncn2[C@H]2C[C@H](O)[C@@H](COP(=O)(O)O)O2)c(=O)[nH]1
z-scored log2 fold change (binding, equilibrium dialysis LC-MS; 5 µM, thermostabilized A2AR-BRIL construct; baseline: no-protein control, direction not given): 0.125

CCN1/C(=C/C(C)=O)Sc2ccc(F)cc21
PR interval change (cynomolgus monkey; oral, 100 mg/kg, 1 h post-dose; baseline: pre-dose): 99.2 ± 2.4%

NC1(C(=O)N[C@@H](CCO)c2ccc(Cl)cc2)CCN(c2nc[nH]c3nccc2-3)CC1
Tmax (LC-MS/MS, non-compartmental; human patients, plasma; 160/400 mg cohort, cycle 0, geometric mean, together with: enzalutamide): 1.7 h

CC(C)(C(=O)N1CCOc2c(C#N)cncc2C1)C(F)F
subjects with adverse event (item: infections and infestations; human; oral, 15 mg twice daily, 14 days, multiple ascending dose): 0%

CCn1ncc2c1-c1cnc(N)c(c1)O[C@H](C)c1cc(F)ccc1-c1nn(C)nc1C2
unbound plasma trough concentration (female BALB/c nude mice, PDX; oral, 5 mg/kg once daily for 1 days, 12 h): 37 ± 17 nM

CCOC(=O)N1C[C@@H](c2cccc(Br)c2)N[C@@H](c2ccc(N3CCCC3)cc2)C1
logD (shake-flask, 1-octanol/buffer; pH 7.4): > 4.7

COc1cc(C(=O)N2CCC3(CC2)CC(=O)c2c(cnn2C(C)C)C3)cc(-c2ccc(C(=O)O)cc2)n1
LDL cholesterol change from baseline (direct measurement; human, fasting serum; 100 mg once daily, day 13, adjusted geometric mean): -12%

C=CC(=O)NC1CCN(c2ncc3ncnc(Nc4ccc(Oc5ccc6c(c5)ncn6C)c(C)c4)c3n2)CC1
AUC0-tz increase (human, male, plasma; oral, 240 mg, fed; baseline: fasted): ~26%

CCC[C@H](C)[C@H]1CN(C(=O)OCC)C[C@@H](c2ccc(C(C)(C)C)cc2)N1
logD (shake-flask, 1-octanol/buffer; pH 7.4): > 4.7

Cc1ccc(Sc2ccccc2N2CCNCC2)c(C)c1
participants with TEAE (item: Diarrhea; healthy adult men; oral, 20 mg daily, 12 days): 0%

CNc1cc[n+](CCNC(=O)c2ccn3c(-c4c(C)noc4C)cnc3c2)cc1.[Cl-]
largest degradation product (aqueous buffer; initial, pH 10): not detected

CC1CNC(=O)NC1=O (centres unmarked)
z-scored log2 fold change (binding, equilibrium dialysis LC-MS; 5 µM, thermostabilized A2AR-BRIL construct; baseline: no-protein control, direction not given): -0.334

CCc1cc(C(=O)NC)c2nccc(N3CCc4c(cc(Cn5ccnc5)cc4-c4cn(C)nc4C(F)(F)F)C3=O)c2c1
body weight (Sprague Dawley rat; oral, 100 mg/kg twice daily, day 1, 7-day toxicology study): 218 ± 4.9 g

O=C(O)CCC(=O)O.[2H]C([2H])([2H])Oc1cc(C)c2[nH]ccc2c1CN1CC[C@@H](C2CC2)C[C@H]1c1ccc(C(=O)O)cc1
subjects with sinus bradycardia TEAE (multiple ascending dose; healthy Chinese subjects; 100 mg twice daily): 0%

CCOc1c([C@H](C)n2nc(C)c3c(N)ncnc32)cc(Cl)c(F)c1[C@@H]1CNC(=O)C1
ECG observations (item: QRS ≤100 ms; previously treated B-cell malignancy; oral, 20 mg once daily, baseline below thresholds): 92.7%

C=CC(=O)N1CCC(c2ccc(C(N)=O)c(-c3ccc(Oc4ccccc4)cc3)n2)CC1
incidence (serious adverse event Hypoglycemia; patients with relapsed/refractory MCL; oral): 0.9%

N#Cc1c2n(c3c(=O)n(CC(=O)O)cnc13)CCCC2
Kd (Ubiquitin carboxyl-terminal hydrolase 39, ZnF-UBD domain (Homo sapiens, UniProt Q53GS9)): > 1000 µM

Nc1ncnc2c1ncn2[C@H]1C[C@@H]2OP(=O)(O)OC[C@H]3O[C@@H](n4cnc5c(N)ncnc54)C[C@@H]3OP(=O)(O)OC[C@H]2O1
MCH (non-tumor-bearing mice, blood; intravenous, 1 mg/kg, toxicity study): 22.95 ± 0.06 pg

C[C@@H](Oc1ccc(S(C)(=O)=O)cc1C(=O)N1C[C@@H]2C[C@]2(c2cc(C(F)(F)F)on2)C1)C(F)(F)F
%AUC extrapolated (elderly humans, plasma; oral, 50 mg once daily, single dose, geometric mean): 27.8%

C[C@@H](NC(=O)N1C(=O)[C@H](Cc2ccnc(N)c2)[C@H]1C(=O)O)C1CCCCC1
CL (UPLC-MS/MS; healthy adult Chinese volunteers, plasma; continuous intravenous infusion, 1.5 mg/kg/h, day 6 of 5-day infusion, mean): 5.4 mL/min/kg

CN(C(=O)n1cnc(-c2cccnc2)c1)[C@H]1CC[C@H](O)CC1
concentration (Wistar rat, pons; oral, 10 mg/kg/day of BIA 10-2474, 4 h, repeated 5 days): 38.1 ± 6.6 ng/g

Cn1cc(-c2cn3nccc3c(-c3cnn([C@]4(CC#N)C[C@@H](C#N)C4)c3)n2)cn1
peak to trough ratio (healthy humans fed, plasma; oral, 30 mg once daily, day 10, geometric mean): 13.6

[O]=[Co].[O]=[Co][O][Co]=[O]
creatinine-corrected cobalt concentration (rat, male, urine, 24-h collection; oral gavage, single, 300 mg/kg (220 mg Co/kg), day 3, vehicle 0.5% HPMC): 0.0178 µg/µmol creatinine

C[C@H]1CN(C(=O)CC#N)[C@]12CCN(c1ncnc3[nH]ccc13)C2
Cmax (healthy Japanese males, plasma; oral, 25 mg single dose): 313 ng/mL

NC/C(=C\F)COc1cccc(Cn2c(=S)[nH]c(=O)c3[nH]cnc32)c1
tissue concentration (C57BL/6J mice, liver; oral, 15 mg/kg single, 6 h): 735 ng/mL

C[C@@H](O)CCOC(=O)C[C@@H](C)O
diastolic blood pressure (human; oral drink, dose not given, 120 min post dose, mean): 63 mmHg

Cc1cc(Nc2cc3ncccc3c(N[C@@H]3C[C@H]4CC[C@@H](C3)N4CCC#N)n2)n[nH]1
skin subcutaneous disorders incidence (healthy human subjects; oral, 30 mg, 2 weeks, single ascending dose): 0%

CCCCCN1C[C@H](O)[C@@H](O)[C@H](O)[C@@H]1CO
geometric mean brain concentration (LC-MS/MS; Hexb-/- mice, total, brain; 300 mg/kg/day): 271 ng/g

COc1cc(Nc2ncc3c(n2)-c2ccc(Cl)cc2C(c2c(F)cccc2OC)=NC3)ccc1C(=O)O
patients with adverse event (item: Pain, all grades; cancer patients, phase 1/2; oral, dose not given, together with: pembrolizumab): 17%

O=C(COc1ccc(Cl)cc1)NC12CC(c3nnc([C@H]4C[C@@H](OC(F)(F)F)C4)o3)(C1)C2
procedural pain (humans; concentration not given): 5.3%

C[C@@H](O)[C@H](NC(=O)c1ccc(-c2ccccc2)cc1)C(=O)NCC1(C)NC(=O)NC1=O (some centres unmarked)
logD (octanol/buffer; pH 7.4): 1.82

COc1ccc(Cl)cc1C(=O)NCCc1ccc(S(=O)(=O)NC(=O)NC2CCCCC2)cc1
chromatographic hydrophobicity index (HPLC C18 retention; pH 7.4; baseline: calibration standards): 63.7

O=C1CC[C@H](N2Cc3cc(N4CCN(CC5CCN(c6ccc([C@@H]7c8ccc(O)cc8CC[C@@H]7c7ccccc7)cc6)CC5)CC4)ccc3C2=O)C(=O)N1
participants with TRAEs (human; oral, 200 mg, together with: rosuvastatin 10 mg): 16.7%

CCN1CCN(Cc2ccc(Nc3ncc(F)c(-c4cc(F)c5nc6n(c5c4)[C@H](C)CCC6)n3)nc2)CC1
CL/F (human, plasma; 50 mg multiple dosing, mean): 30.4 L/h

A few entries again:
NC1(C(=O)N[C@@H](CCO)c2ccc(Cl)cc2)CCN(c2nc[nH]c3nccc2-3)CC1
Tmax (LC-MS/MS, non-compartmental; human patients, plasma; 160/400 mg cohort, cycle 0, geometric mean, together with: enzalutamide): 1.7 h

CC(C)(C(=O)N1CCOc2c(C#N)cncc2C1)C(F)F
subjects with adverse event (item: infections and infestations; human; oral, 15 mg twice daily, 14 days, multiple ascending dose): 0%

CCn1ncc2c1-c1cnc(N)c(c1)O[C@H](C)c1cc(F)ccc1-c1nn(C)nc1C2
unbound plasma trough concentration (female BALB/c nude mice, PDX; oral, 5 mg/kg once daily for 1 days, 12 h): 37 ± 17 nM
